Measurements collected from several papers.
A part holds a random share of what one study measured.

Study 1 — method: RNA Bind-n-Seq; molecule type: RNA; matrix: in vitro; tested at: 100 nM; reference: input RNA pool; direction: higher = stronger binding
Target: RING finger protein unkempt homolog, zinc fingers 1-6, SBP tag (UNK, Homo sapiens, UniProt Q9C0B0, residues 30-357)
Chain of UniProt Q9C0B0 (30-357, looked up): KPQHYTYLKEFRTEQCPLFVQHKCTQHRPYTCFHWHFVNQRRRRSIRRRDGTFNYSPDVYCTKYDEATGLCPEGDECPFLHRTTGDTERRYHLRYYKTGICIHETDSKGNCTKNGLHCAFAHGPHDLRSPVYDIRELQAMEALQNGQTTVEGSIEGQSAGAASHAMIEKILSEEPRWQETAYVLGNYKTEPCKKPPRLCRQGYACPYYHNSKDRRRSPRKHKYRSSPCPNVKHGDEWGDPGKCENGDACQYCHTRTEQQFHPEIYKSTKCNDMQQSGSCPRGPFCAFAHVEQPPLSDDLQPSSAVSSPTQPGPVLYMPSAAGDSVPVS
Setting: RNA with constant flanks, vertebrate orthologous sites, ends assumed
Strand | bound/input enrichment [ratio]
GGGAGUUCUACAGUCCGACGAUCACAGUCCUCUACUUAAACUGGUAUUUUCAAACAAUAGGAAGCUAUUUUUUUUUUUUACAGUUUAGUAUCUUGUUUCUACAUGGAAGACUAAACAUGCUUAUAGCUAAAUGUGGUCUUUGCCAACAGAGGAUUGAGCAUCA | 0.417
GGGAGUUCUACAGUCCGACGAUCAGAAAAUUUUAACCAAGAAUCUGAAGGUAGAAAUACAGGACCGUGGUUGUCUUCCUCACUUAGAAAUAGAUGCACACCUUUGUUCUCUAGAAGGAGACGAGAGGGACGAGAUGAAUCUUCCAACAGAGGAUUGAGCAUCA | 0.521
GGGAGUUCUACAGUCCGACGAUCAAAGGAAUAAUCCUGGCUGCUUUUUGUGAGGUAAAGUGUCCCUUGACAUAUGGUUGAUACCAGCACCAUUAUCCCAAAUAUGUUUUUCAACGUUUCAUUUCUUUCAUGUAGUCUUUAAAACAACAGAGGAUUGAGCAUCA | 0.794
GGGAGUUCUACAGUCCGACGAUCGUUGUGAUCCUUUUAACAUACACAGAAAGCUAUCAAAGAAAAAAUUACGAGCAAUUGACUUAGAUGAUGCAGCUUUUCUAAGUGCGAAGUUUGGAAGACAGUUUGUACCUGGUUGGAAGCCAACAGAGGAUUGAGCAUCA | 0.684
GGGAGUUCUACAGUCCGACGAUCCUUUUUAUUGAUCAGGUCUAUAAAUGUGUACUAAAAAUCAGGGUUUAUUCAUAAACAGAUUAGUAAAUUUUUUUUAAAUGUUUUUUCUCCAUUGUUGUAGUGGUAUGCCUUCAGUAAACUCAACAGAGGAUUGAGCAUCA | 1.11
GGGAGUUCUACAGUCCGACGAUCAAUCAGUAGAACUACAUAAUACUAAAGUUGCAGUUGAAAGGAUAUCCAAGUAUGUGUUGGUAGUUACUAAAAGAAUUAUAGCUGUUAUUGCCUUGUAUUUAUAGCCCUGUUUCAGGUUUCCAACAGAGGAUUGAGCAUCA | 0.765
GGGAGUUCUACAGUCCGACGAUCCUAUGAUGUCAAACAUAUCUACCCAAAGAACUAACAUUUUAUAAAUAUUACUAGUUUAGCUGCAGUCUAAGUAUUAAUUAUGACAAACAGCCAAAGUGAAUUUAAGAGUGUAAGUAAGACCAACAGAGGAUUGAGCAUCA | 0.305
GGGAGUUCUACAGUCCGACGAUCUUUUUAGUACUUAAGCCAACAGCAGUUCUAAAAUACUAUUUAUUUGUGUAAGUUUGUACAUAGUAAUACCAACCUCAUAUUGUUGCAGAAUUUAUUUUUUCCUGAAUUUGAGUUUUGAGACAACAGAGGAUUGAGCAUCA | 0.664
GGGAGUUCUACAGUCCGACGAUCCAGCUGAUUCACUCAUUGGGAGAGCUGCACAUAUAGCUGUUCUUGAUUCAGAAAUAUUUUUAGAGAAAUUCUUUCUGGUUGCUGCCCUCAAAUAUUUCCAAUAGGAUAAAAACAUUGUUACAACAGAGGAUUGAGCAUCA | 0.986
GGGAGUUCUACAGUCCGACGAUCCAGCUGAUUCGCUCAUCGGGAGAGCUGCACAUAUAGCCGUUCUUGAUUCAGAAAUCUUCUUAGAGAAAUUCUUUCUGGUUGCUGCCCUUAAAUAUUUUCAAUAGGAUAAAAACGCUGUUACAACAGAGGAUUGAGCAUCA | 0.843
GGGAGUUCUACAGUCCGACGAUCACAGAAGAAGAGCUCACAACUCAAAAGGAACUAUUAAAAGAGUUUCUAAUGGCUGAAAGCUAGGAAAAAUUAGGACAAUUUUACAAAUGAGCCAUUAAAACAAAACAAAAAAAAAGGAUACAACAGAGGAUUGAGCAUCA | 1.29

Study 2 — method: protein binding microarray; molecule type: double-stranded DNA, one strand shown; matrix: in vitro; tested at: not given; reference: not given; direction: higher = stronger binding
Target: Histone acetyltransferase KAT6A, winged helix 2, GST fusion (KAT6A, Homo sapiens, UniProt Q92794, residues 85-181)
Setting: 8-mer, flanks averaged, mean of 2 arrays, mostly near background
Residues (chain): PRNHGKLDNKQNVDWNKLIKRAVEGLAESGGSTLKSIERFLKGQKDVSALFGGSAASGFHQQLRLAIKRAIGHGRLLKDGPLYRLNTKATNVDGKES
Strand | E-score
GACTTCAA | -0.228
ACTGATTG | -0.0989
GCATCACC | -0.000165
CCGTGCGC | 0.0698
AGTGAAAC | 0.0156
ACACGCGC | 0.172
ATAGTGCA | 0.0844
TCGATGAA | 0.0335
CAGCTCTA | -0.223
CCATCTTC | 0.142
CTCGTCAA | -0.0591
ACTCCTTG | -0.139
CTTCACGA | -0.147
GTTTATTA | 0.0947
CATGCCTC | 0.0378
GCTATGTA | -0.184
GACATTGA | -0.0671
ACCGCGCA | 0.00977
ATTGGAAA | 0.0509

Study 3 — method: RNA Bind-n-Seq; molecule type: RNA; matrix: in vitro; tested at: 200 nM; setting: whole 134-nt RNA, ends assumed; added: 150 mM LiCl; reference: input library; direction: higher = stronger binding; all molecules: 7-deaza-guanosine replaces G
Target: Fragile X messenger ribonucleoprotein 1, C-terminal low-complexity region (Fmr1, Mus musculus, UniProt P35922)
Strand | log2 enrichment
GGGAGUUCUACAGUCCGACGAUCCACAGACAACACGCACCCACACAGACACAGAGGGAAGGGGUUGGGAUGGGGCCAGGGUGCACAGCAGGGCGGGGUAGGACCCCAGCCCCUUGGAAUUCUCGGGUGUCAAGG | 0.9
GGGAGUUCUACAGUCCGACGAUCUCCUCAAGUCCUGUGCUACACAUCGUAUGUACCGAAUCGGCGGGGCGGCGGAAAGUAUUAUGUUACGCCGUUCGGAUCUGCACUUCCAGCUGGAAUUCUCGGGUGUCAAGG | 0.566
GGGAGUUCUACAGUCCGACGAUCCAAGUCCUGUGCUACACAUCGUAUGUACCGAAUCGGGUUUGGGGUUUGGGUUUGGGAAAGUAUUAUGUUACGCCGUUCGGAUCUGCACUUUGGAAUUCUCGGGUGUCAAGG | -1.61
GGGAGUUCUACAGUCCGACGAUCUGGCCCUGGUGGCAUGAGGGGAGGAAGAGGUGGCCUCAUGGAUCGUGGUGGUCCCGGUGGAAUGUUCAGAGGUGGCCGUGGUGGAGACAGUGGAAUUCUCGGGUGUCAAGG | 0.64
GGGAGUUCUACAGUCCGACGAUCUAAGAAGGAAAUUGAGAGGAGAAAAACUGGAAAAGAAAUGUUGGAUUAUAAAAGAAAACAAGAAGAAGAAUUAACAAAAAGAAUGCUGGAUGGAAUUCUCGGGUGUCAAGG | -0.873
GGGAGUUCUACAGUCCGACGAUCUUCUUUGCCCAACGGGGCCGUGGAUACCUGCCUUUUAAUUCUUUUUUAUUCGCCCAUCGGGGCCGCGGAUACCUGCUUUUUAUUUUUUUUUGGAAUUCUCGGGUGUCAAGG | 1.46
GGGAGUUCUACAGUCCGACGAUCCUCAAGUCCUGUGCUACACAUCGUAUGUACCGAAUCGGGCCGGGCCGGCCGGGAAAGUAUUAUGUUACGCCGUUCGGAUCUGCACUUCCAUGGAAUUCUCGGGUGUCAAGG | 1.01
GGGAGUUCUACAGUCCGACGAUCAGUCCUGUGCUACACAUCGUAUGUACCGAAUCAAACCCAAACCCCCAAACCCCCAAAAAAGUAUUAUGUUACGCCGUUCGGAUCUGCACUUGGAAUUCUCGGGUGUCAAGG | -0.0645
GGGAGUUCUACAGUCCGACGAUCCAAGUCCUGUGCUACACAUCGUAUGUACCGAAUCGGGGUUUGGGGAGGGGAGGGGAAAGUAUUAUGUUACGCCGUUCGGAUCUGCACUUCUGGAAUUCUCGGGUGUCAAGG | 0.122
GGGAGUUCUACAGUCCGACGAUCAAGUCCUGUGCUACACAUCGUAUGUACCGAAUCGGAGGUUUUUUUGGAAAAAAAGGAAAGUAUUAUGUUACGCCGUUCGGAUCUGCACUUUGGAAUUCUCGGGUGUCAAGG | -2.23
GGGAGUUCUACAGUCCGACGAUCCUCAAGUCCUGUGCUACACAUCGUAUGUACCGAAUCGGAAGGAAGGGGAAGGGGAAAGUAUUAUGUUACGCCGUUCGGAUCUGCACUUCCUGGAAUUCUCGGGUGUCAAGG | -0.061

Study 4 — method: RNA Bind-n-Seq; molecule type: RNA; matrix: in vitro; tested at: 365 nM; reference: no-protein control; direction: higher = stronger binding
Target: RNA binding protein fox-1 homolog 2, RRM domain, GST-SBP tag (RBFOX2, Homo sapiens, UniProt O43251-10, residues 100-194)
Setting: natural RNA segment, single round, ends assumed
Target sequence (chain): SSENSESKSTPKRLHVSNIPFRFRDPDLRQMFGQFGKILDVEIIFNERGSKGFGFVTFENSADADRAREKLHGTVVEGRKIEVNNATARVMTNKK
Strand | RBNS enrichment (R)
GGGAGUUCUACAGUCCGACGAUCGGCCAACCUGCCUUUCCCCAGAAGGAGUGAUUUUUCUAUCGGCACAAAAGCACUAUAUGGACUGGUAAUGGUUACAGGUUCAGAGAUUACCCAGUGAGGCCUUAUUCCUCUGGAAUUCUCGGGUGCCAA | 0.383
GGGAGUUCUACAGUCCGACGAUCACAUUAUAGUUGUAAAGCUCAAGUUAAAAUAAAAAUAAAAGUGAUAGGACUAAGUCACCUAUCCAAGAAAAAUGUGUUAGUCAUACUUCUUUGACAAAUAUCACAAAUGAUGGAAUUCUCGGGUGCCAA | 0.494
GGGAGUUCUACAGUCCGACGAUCAGGUACUCGGCGCCCUGUGGACUGUGUGGAAACUGAUUUUUCUUUUUUCUAUACUGAAUACCCUUUGAGAUUUGUGUGGGACAUGGGUCCAUGUGGGUUUAGUGACAGAGUGGAAUUCUCGGGUGCCAA | 0.379
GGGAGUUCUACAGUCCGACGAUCUUUGCAAUGAUCUGUGCCUUCUUUCUACCACCCUCUUGAUUGGAGCUUUUGUGAUGCAGCUACCAUGAUUCCAAAUAAGUAAAAAUCAGCCACUUCUCCCUGUCCACUAGUGGAAUUCUCGGGUGCCAA | 8
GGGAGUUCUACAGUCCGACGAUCGCUGGGACAGUUCAGGUAGGGCAGGUGAGGGACCCCCGAGGCCCUGGAGCCUUGUCCUGGGAUGGGUUUGAAGAACUCAUCACUCAUCACUUGUUUUCUUUUGGCUUUUGUGGAAUUCUCGGGUGCCAA | 0.809
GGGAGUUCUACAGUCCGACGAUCUUUUCUGGAGUAUAUUUGUACCAUAUUGUAACAAAAUGAUCCUGGCCACAAAAUAAAACACACACUGAUCAAAGCCGGCUAUACUGGCAUUGCAUAUCUUUGCUAUUCAAUGGAAUUCUCGGGUGCCAA | 0.293
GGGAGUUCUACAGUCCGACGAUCAAUACAGCGUGGGACCCUUCAGCCACUACAACAGAAUUUUUUAAAUUGACAGUUGCAGAAUUGUGGAGUGUUUUUACAUUGAUCUUUUGCUAAUGCAAUUAGCAUUAUGUUGGAAUUCUCGGGUGCCAA | 0.312
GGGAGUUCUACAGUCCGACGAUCACCUGCAGGGCAUGAUGGAUCAGUGAUGAAAGAAUUGUAGCCUGUGGCACUUUGUUUUGACCUCUGGUAUAGAACUCUGACUUUUAUAGUUUUAAAAUGAUCAAUCUUUGUGGAAUUCUCGGGUGCCAA | 20.7
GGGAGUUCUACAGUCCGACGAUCUCUGGCUUUGACUGACUCCUGGGGGAAGCUGCUGUGGCCCAGCUCCUCCCUCCUCAUCUUGCCGUCCCACUGGGGUGCUAGGAAAUCCAGGAUGACGGCUGCUCUGAUAUUGGAAUUCUCGGGUGCCAA | 2.6

Repeated from above (study 2):
Strand | E-score
ACACGCGC | 0.172
CATGCCTC | 0.0378
CTTCACGA | -0.147
GCTATGTA | -0.184
ATAGTGCA | 0.0844
CTCGTCAA | -0.0591
GACATTGA | -0.0671
